Assay results collected from several papers.
Each line is one published result; not all experiments were run side by side.
Method: steady-state kinetics
B1: UGT1A9 (Homo sapiens, UniProt O60656); chain GKLLVVPMDGSHWFTMRSVVEKLILRGHEVVVVMPEVSWQLGRSLNCTVKTYSTSYTLEDLDREFKAFAHAQWKAQVRSIYSLLMGSYNDIFDLFFSNCRSLFKDKKLVEYLKESSFDAVFLDPFDNCGLIVAKYFSLPSVVFARGILCHYLEEGAQCPAPLSYVPRILLGFSDAMTFKERVRNHIMHLEEHLLCHRFFKNALEIASEILQTPVTEYDLYSHTSIWLLRTDFVLDYPKPVMPNMIFIGGINCHQGKPLPMEFEAYINASGEHGIVVFSLGSMVSEIPEKKAMAIADALGKIPQTVLWRYTGTRPSNLANNTILVKWLPQNDLLGHPMTRAFITHAGSHGVYESICNGVPMVMMPLFGDQMDNAKRMETKGAGVTLNVLEMTSEDLENALKAVINDKSYKENIMRLSSLHKDRPVEPLDLAVFWVEFVMRHKGAPHLRPAAHDLTWYQYHSLDVIGFLLAVVLTVAFITFKCCAYGYRKCLGKKGRVKKAHKSKTH
B2: UGT88A1 V18R (Arabidopsis thaliana, UniProt Q9LK73); chain MGEEAIVLYPAPPIGHLRSMVELGKTILSKNPSLSIHIILVPPPYQPESTATYISSVSSSFPSITFHHLPAVTPYSSSSTSRHHHESLLLEILCFSNPSVHRTLFSLSRNFNVRAMIIDFFCTAVLDITADFTFPVYFFYTSGAACLAFSFYLPTIDETTPGKNLKDIPTVHIPGVPPMKGSDMPKAVLERDDEVYDVFIMFGKQLSKSSGIIINTFDALENRAIKAITEELCFRNIYPIGPLIVNGRIEDRNDNKAVSCLNWLDSQPEKSVVFLCFGSLGLFSKEQVIEIAVGLEKSGQRFLWVVRNPPELEKTELDLKSLLPEGFLSRTEDKGMVVKSWAPQVPVLNHKAVGGFVTHCGWNSILEAVCAGVPMVAWPLYAEQRFNRVMIVDEIKIAISMNESETGFVSSTEVEKRVQEIIGECPVRERTMAMKNAAELALTETGSSHTALTTLLQSWSPK
B3: msrA U16C (Clostridium oremlandii, UniProt A8MI53); chain MDTNQKLSIAVFALGCFWGPDAQFGSIKGVVSTRVGYAGGTTNNPSYYNLGDHSESIEIQYDANVITYGELLNIFWNLHNPVYETTNRQYMSRIFYLDDGQKSEALEMKRQIEAANGEKIYTEIVPLENFYLAEGYHQKYYLQNTTKLYQTLKAIYGGFGNLVRSTLAARMNGYIAGNLSIASLKEEMDLVELPEDQYEKVLSIVEEIK
B4: PduO (Limosilactobacillus reuteri, UniProt Q50EJ2); chain MKIYTKNGDKGQTRIIGKQILYKNDPRVAAYGEVDELNSWVGYTKSLINSHTQVLSNELEEIQQLLFDCGHDLATPADDERHSFKFKQEQPTVWLEEKIDNYTQVVPAVKKFILPGGTQLASALHVARTITRRAERQIVQLMREEQINQDVLIFINRLSDYFFAAARYANYLEQQPDMLYRNSKDVFR
B5: cyc1 V329M (Streptomyces coelicolor, UniProt Q9K499); chain MHAFPHGTTATPTAIAVPPSLRLPVIEAAFPRQLHPYWPKLQETTRTWLLEKRLMPADKVEEYADGLCYTDLMAGYYLGAPDEVLQAIADYSAWFFVWDDRHDRDIVHGRAGAWRRLRGLLHTALDSPGDHLHHEDTLVAGFADSVRRLYAFLPATWNARFARHFHTVIEAYDREFHNRTRGIVPGVEEYLELRRLTFAHWIWTDLLEPSSGCELPDAVRKHPAYRRAALLSQEFAAWYNDLCSLPKEIAGDEVHNLGISLITHHSLTLEEAIGEVRRRVEECITEFLAVERDALRFADELADGTVRGKELSGAVRANVGNMRNWFSSMYWFHHESGRYMVDSWDDRSTPPYVNNEAAGEK
B6: protein G96D (Streptomyces coelicolor, UniProt P16544); chain MATQDSEVALVTGATSGIGLEIARRLGKEGLRVFVCARGEEGLRTTLKELREAGVEADGRTCDVRSVPEIEALVAAVVERYGPVDVLVNNAGRPGDGATAELADELWLDVVETNLTGVFRVTKQVLKAGGMLERGTGRIVNIASTGGKQGVVHAAPYSASKHGVVGFTKALGLELARTGITVNAVCPGFVETPMAASVREHYSDIWEVSTEEAFDRITARVPIGRYVQPSEVAEMVAYLIGPGAAAVTAQALNVCGGLGNY
B7: alanine racemase H127A/H166A/H200A (Geobacillus stearothermophilus, UniProt P10724); chain MNDFHRDTWAEVDLDAIYDNVENLRRLLPDDTHIMAVVKANAYGHGDVQVARTALEAGASRLAVAFLDEALALREKGIEAPILVLGASRPADAALAAQQRIALTVFRSDWLEEASALYSGPFPIHFALKMDTGMGRLGVKDEEETKRIVALIERHPHFVLEGLYTAFATADEVNTDYFSYQYTRFLHMLEWLPSRPPLVACANSAASLRFPDRTFNMVRFGIAMYGLAPSPGIKPLLPYPLKEAFSLHSRLVHVKKLQPGEKVSYGATYTAQTEEWIGTIPIGYADGWLRRLQHFHVLVDGQKAPIVGRICMDQCMIRLPGPLPVGTKVTLIGRQGDEVISIDDVARHLETINYEVPCTISYRVPRIFFRHKRIMEVRNAIGRGESSA
B8: enzyme (Mortierella alpina, UniProt U5Y6A8); chain MAPPHVVDEQVRRRIVVEDEIQSKKQFERNYVPMDFTIKEIRDAIPAHLFIRDTTKSILHVVKDLVTIAIVFYCATFIETLPSLALRVPAWITYWIIQGTVMVGPWILAHECGHGAFSDSKTINTIFGWVLHSALLVPYQAWAMSHSKHHKGTGSMSKDVVFIPATRSYKGLPPLEKPAAEEEVLEQEHHHHEESIFAETPIYTLGALFFVLTLGWPLYLIMNFSGHEAPHWVNHFQTVAPLYEPHQRKNIFYSNCGIVAMGSILTYLSMVFSPLTVFMYYGIPYLGVNAWIVCITYLQHTDPKVPHFRDNEWNFQRGAACTIDRSFGTIVNHLHHHIGDSHQCHHMFSQMPFYNAVEATKHLKAKLGKYYIFDDTPIAKALYRNWRECKFVEDEGDVVFYKH
Sequence of UniProt E0Y3X0 (whole entry, looked up): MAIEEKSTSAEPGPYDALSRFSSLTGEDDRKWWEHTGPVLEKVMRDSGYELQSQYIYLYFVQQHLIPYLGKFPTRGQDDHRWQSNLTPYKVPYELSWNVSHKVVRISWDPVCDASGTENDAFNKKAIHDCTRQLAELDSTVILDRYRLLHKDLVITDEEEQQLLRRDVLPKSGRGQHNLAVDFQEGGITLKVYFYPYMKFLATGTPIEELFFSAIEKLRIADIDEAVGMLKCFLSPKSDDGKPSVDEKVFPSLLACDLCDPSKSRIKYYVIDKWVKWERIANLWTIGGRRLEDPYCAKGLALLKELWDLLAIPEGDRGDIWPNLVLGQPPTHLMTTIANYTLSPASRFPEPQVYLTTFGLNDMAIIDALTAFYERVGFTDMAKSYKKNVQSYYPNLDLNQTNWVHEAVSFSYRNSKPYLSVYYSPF
Sequence of UniProt Q9LQL2 (whole entry, looked up): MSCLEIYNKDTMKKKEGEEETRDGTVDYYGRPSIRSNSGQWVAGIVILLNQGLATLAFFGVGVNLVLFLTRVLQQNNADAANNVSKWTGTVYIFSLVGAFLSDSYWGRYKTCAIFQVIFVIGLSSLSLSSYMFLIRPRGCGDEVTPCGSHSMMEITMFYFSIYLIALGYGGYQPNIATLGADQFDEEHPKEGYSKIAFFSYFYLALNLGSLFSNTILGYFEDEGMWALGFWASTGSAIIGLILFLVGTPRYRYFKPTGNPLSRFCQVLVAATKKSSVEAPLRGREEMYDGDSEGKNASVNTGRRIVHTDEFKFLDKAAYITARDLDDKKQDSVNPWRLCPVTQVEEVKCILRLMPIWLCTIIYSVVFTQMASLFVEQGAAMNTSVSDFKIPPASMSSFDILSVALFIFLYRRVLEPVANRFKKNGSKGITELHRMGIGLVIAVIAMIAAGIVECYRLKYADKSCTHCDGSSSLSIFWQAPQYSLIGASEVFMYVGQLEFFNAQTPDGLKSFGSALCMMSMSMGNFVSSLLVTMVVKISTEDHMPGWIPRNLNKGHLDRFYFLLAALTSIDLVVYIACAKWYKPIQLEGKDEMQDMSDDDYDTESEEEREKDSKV

B1 (UGT1A9)  Km (COc1ccc(-c2oc3ccc(OC)cc3c(=O)c2O)cc1; pH 7.4, 37 °C): 0.043 µM
B2 (UGT88A1 V18R)  Km (O=c1c(O)c(-c2ccc(O)c(O)c2)oc2cc(O)cc(O)c12; pH 6.8, 37 °C, added: UDP-glucose): 200 µM
B3 (msrA U16C)  Km (CN(C)c1ccc(N=Nc2ccc(S(=O)(=O)N[C@@H](CC[S@+](C)[O-])C(=O)O)cc2)cc1; pH 7.5, 37 °C, 50 mM NaCl, Km above tested range, added: 20 mM DTT reductant): 4000 µM
B4 (PduO)  Km (Nc1ncnc2c1ncn2[C@@H]1O[C@H](COP(=O)(O)OP(=O)(O)OP(=O)(O)O)[C@@H](O)[C@H]1O; pH 8, 37 °C, anoxic, added: cob(I)alamin): 2.2 µM
alanine aminopeptidase (Neisseria meningitidis, UniProt Q9JYV4)  Km (NC(=O)Cc1cc(=O)oc2cc(NC(=O)[C@@H](N)CCC(=O)OCc3ccccc3)ccc12; pH 7.5, 37 °C): 50.6 µM
enzyme (Arabidopsis thaliana, UniProt Q9LQL2)  Km (O=C(O)Cc1c[nH]c2ccccc12; pH 5.8, 25 °C, not purified): 14 µM
WlbA (Thermus thermophilus, UniProt Q72KX8)  Km (CC(=O)N[C@H]1[C@@H](OP(=O)(O)OP(=O)(O)OC[C@H]2O[C@@H](n3ccc(=O)[nH]c3=O)[C@H](O)[C@@H]2O)O[C@H](C(=O)O)[C@@H](O)[C@@H]1O; pH 8.5, 25 °C, added: enzyme-bound NAD(H)): 430 µM
B5 (cyc1 V329M)  Km (CC(C)=CCC/C(C)=C/CC/C(C)=C/CO[P@@](=O)(O)OP(=O)(O)O; pH 6.5, 30 °C, added: MgCl2 10 mM): 6.5 µM
NotC (UniProt E0Y3X0)  Km (CC(C)=CCOP(=O)(O)OP(=O)(O)O; pH 7.5, added: 6-hydroxy-deoxybrevianamide E 22, MgCl2 5 mM): 1.89 µM
B6 (protein G96D)  Km (O[C@H]1CCCc2ccccc21; pH 7.4, phosphate 400 mM, NADPH 250 µM printed, added: NADP+, reverse reaction): 33800 µM
B7  Km (C[C@@H](N)C(=O)O; pH 9, room temperature, added: NAD+ 10 mM): 800 µM
B8 (enzyme)  Km (CCCCC/C=C\C/C=C\C/C=C\C/C=C\CCCC(=O)SCCNC(=O)CCNC(=O)[C@H](O)C(C)(C)COP(=O)(O)OP(=O)(O)OC[C@H]1O[C@@H](n2cnc3c(N)ncnc32)[C@H](O)[C@@H]1OP(=O)(O)O; pH 7.5, 28 °C): 157 µM

Some of these lines once more:
B6 (protein G96D)  Km (O[C@H]1CCCc2ccccc21; pH 7.4, phosphate 400 mM, NADPH 250 µM printed, added: NADP+, reverse reaction): 33800 µM
